Assay results of several laboratories.
A part holds a random share of what one study measured. Substitutions count along the parent as printed.

Block 1
Target: CREB3L1, bZIP domain (human)
Technique: DHFR protein complementation
Matrix: yeast
Setting: single substitutions, most at no-binding floor
Baseline: wild-type JUN-FOS pair
Reading: higher = stronger binding
Starting sequence: JUN, bZIP domain (human); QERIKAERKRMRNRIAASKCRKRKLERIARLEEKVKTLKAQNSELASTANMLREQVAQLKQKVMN; partner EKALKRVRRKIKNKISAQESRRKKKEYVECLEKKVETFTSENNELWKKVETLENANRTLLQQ
`E44A` gave a binding fitness of -1.39 natural log.
For `Q41P`, the binding fitness was -1.54 natural log.
`L31R` has a binding fitness of -1.44 natural log.
`V35K` gave a binding fitness of -1.4 natural log.
`R30I` has a binding fitness of -1.39 natural log.
The binding fitness of `E32W` is reported as -1.52 natural log.
With `T37M` the binding fitness was -0.925 natural log.
`R53K` has a binding fitness of -1.5 natural log.
`A40C` gave a binding fitness of -1.17 natural log.
With `Q55I` the binding fitness was -1.32 natural log.
The binding fitness of `R53Q` is reported as -1.41 natural log.
`V35H` gave a binding fitness of -1.52 natural log.
`R53S` has a binding fitness of -1.44 natural log.
With `A29G` the binding fitness was -1.38 natural log.
With `K34V` the binding fitness was -1.32 natural log.
For `E44I`, the binding fitness was -1.36 natural log.

Block 2
Target: Fragile X messenger ribonucleoprotein 1, C-terminal low-complexity region (Fmr1, Mus musculus, UniProt P35922)
Technique: RNA Bind-n-Seq
Form: RNA
Matrix: in vitro
Concentration: 200 nM
Setting: whole 134-nt RNA, ends assumed
Together with: 150 mM LiCl
Baseline: input library
Reading: higher = stronger binding
All molecules: 7-deaza-guanosine replaces G
All sequences stand within: GGGAGUUCUACAGUCCGACGAUC … UGGAAUUCUCGGGUGUCAAGG
`UCCUCAAGUCCUGUGCUACACAUCGUAUGUACCGAAUCGGGUGGGUGGUGGAAAGUAUUAUGUUACGCCGUUCGGAUCUGCACUUCCAGC` has a log2 enrichment of 0.098.
`ACCAUGCAGGUGGGCAUCUUUGGGAAGUGGGGCAAGGGGGGGAUAGGGAGGGGGGUAACACUUUGGGCACAGGUGGUCCCAGGUCGUUUC` has a log2 enrichment of 1.24.
The log2 enrichment of `GUCCUGUGCUACACAUCGUAUGUACCGAAUCGGAAAAAAGGGAAAAAAGGAAAAAAGGGAAAGUAUUAUGUUACGCCGUUCGGAUCUGCA` is reported as -0.0386.
`GUCCUGUGCUACACAUCGUAUGUACCGAAUCGGGGCCCCCGGCCCCCGGGCCCCCGGGAAAGUAUUAUGUUACGCCGUUCGGAUCUGCAC` gave a log2 enrichment of -2.79.
`UUGUUUAGCAAUCAAGGAGACCGCGAAGGCGUACAUUCCCGGGUGUUGCUUCCAGGAGAAACCCUGAACGGAGAGCUCGUCCUCUUACCA` gave a log2 enrichment of -0.227.
The log2 enrichment of `UCAAGUCCUGUGCUACACAUCGUAUGUACCGAAUCGGGAAAGGGUUUGGGAGGGAAAGUAUUAUGUUACGCCGUUCGGAUCUGCACUUCC` is reported as -1.01.
The log2 enrichment of `CAAGUCCUGUGCUACACAUCGUAUGUACCGAAUCGGGGCCCGGGCCCGGCCCGGGAAAGUAUUAUGUUACGCCGUUCGGAUCUGCACUUC` is reported as -1.46.
With `GCAGGAAGCAAAAACAAAUGGAAAUGCUUCGGAUAGUGGCAGGGGUGGGGGUUGCUAAGGAAAGGGUGGGAUGGGAGUGGGUAAAGAGUU` the log2 enrichment was 1.42.
`UGGGGUCUGCGUACGCCUGGAGUCCUUCCCCGCUGUGCUCAGCAUGGACCCUAUCCGGAGCUUCUGCGGGAAGCUGCGGUCUCUGGCCAG` has a log2 enrichment of -0.508.
The log2 enrichment of `UCCUCAAGUCCUGUGCUACACAUCGUAUGUACCGAAUCGGAGGGGAGGGAGGAAAGUAUUAUGUUACGCCGUUCGGAUCUGCACUUCCAG` is reported as -1.73.
`UCAGUGUCUUACCCUGAAGAGAAAGUUGUAGGUUGGCUGUUGAAAUUCAUUCCUUAGAUAUGAUCAGUUUGAUUGCCCGGCUUUAUUGCC` gave a log2 enrichment of -2.43.

Block 3
Target: Interferon regulatory factor 5, full length, phosphomimetic (IRF5, Homo sapiens, UniProt Q13568-2, residues 1-514, K96S/S451D/S453D/S456D/S462D)
Technique: protein-binding microarray
Form: double-stranded DNA, one strand shown
Matrix: in vitro
Concentration: 250 nM
Setting: 60-bp whole probe
Together with: salmon DNA 0.4 mg/ml
Baseline: random background probes
Reading: higher = stronger binding
All sequences stand within: GCCTAGCAC … GTCTTGATTCGCTTGACGCTGCTG
For `GACGGTCTCGGACTGGGCACGTGCTAG`, the log fluorescence was -0.384 z-score.
`GACCGACTGGGTATCGGGACGTGCTAG` gave a log fluorescence of 0.476 z-score.
For `GACGGTCTCCTTAGCCTGACGTGCTAG`, the log fluorescence was -0.499 z-score.
For `TTAGGTATCGGTTTCGGATAGTGCTAG`, the log fluorescence was 9.38 z-score.
With `CTAGGACTGGGACTGGGTTAGTGCTAG` the log fluorescence was -0.528 z-score.
The log fluorescence of `CTTAGCATGGGGAGGGAGCAGTGCTAG` is reported as 0.0386 z-score.
The log fluorescence of `TTATGACTGGGGTATCGGTTAGTGCTA` is reported as 2.68 z-score.
`TCTACAATGGCTTTGCCTTTGTGCTAG` gave a log fluorescence of -0.298 z-score.
For `TCAATCTTATGATATATAACTGTGCTA`, the log fluorescence was 0.661 z-score.
With `AGACTTTTTTCAGACCTGTCGTGCTAG` the log fluorescence was 0.767 z-score.
`TTAGTTATCCTTATCCTTTAGTGCTAG` has a log fluorescence of 0.724 z-score.
For `TTAGATTTCTGGACTGGATTAGTGCTA`, the log fluorescence was 0.807 z-score.
For `GACGGTCTCGGGTTTCGGGACGTGCTA`, the log fluorescence was 1.71 z-score.
The log fluorescence of `GACGGTATCGGGACTGTGGACGTGCTA` is reported as 1.26 z-score.
`GACGATTTCGGGTTTCTAGACGTGCTA` has a log fluorescence of 3.75 z-score.
`AAGACTTTCTTTCAAATGAAGTGCTAG` has a log fluorescence of 2.91 z-score.
For `TTTTGTTTTTCATTATTGTCGTGCTAG`, the log fluorescence was 4.84 z-score.
For `TTAGGTTTCGGTTTCGCTTAGTGCTAG`, the log fluorescence was 10.6 z-score.
`CACGATATCAGACTGGAGACGTGCTAG` gave a log fluorescence of 0.11 z-score.
`GACGGATTCGGGTATCGGGACGTGCTA` has a log fluorescence of 0.567 z-score.
With `TTAGAACTGAGTATCGATAAGTGCTAG` the log fluorescence was 5.85 z-score.
`CGGATGATCTCTCTGGGCAAGTGCTAG` has a log fluorescence of -0.288 z-score.
For `GACGATATCGGGTATCGAGAGGTGCTA`, the log fluorescence was 2.41 z-score.
`TAAGGACTGGGACTGGGTTAGTGCTAG` gave a log fluorescence of -0.551 z-score.
`TTAGAACTGAGTTTCGATTGGTGCTAG` gave a log fluorescence of 9.37 z-score.

Block 4
Target: CCNA1, cyclin fold, Cln2 fusion (human)
Technique: yeast growth competition, sequencing
Matrix: yeast
Setting: weak parent motif
Baseline: not given
Reading: higher = stronger binding
Starting sequence: E2F1 docking peptide (human); PPVKRRLDLETDH; partner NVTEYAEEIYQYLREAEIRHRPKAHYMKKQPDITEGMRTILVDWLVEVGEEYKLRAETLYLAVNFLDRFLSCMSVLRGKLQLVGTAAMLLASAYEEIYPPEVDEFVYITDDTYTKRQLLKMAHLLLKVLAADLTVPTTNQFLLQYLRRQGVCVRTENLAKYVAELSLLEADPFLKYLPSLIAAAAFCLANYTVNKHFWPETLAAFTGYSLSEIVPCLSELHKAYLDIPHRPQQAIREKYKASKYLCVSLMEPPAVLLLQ
Under “normalised enrichment score”, `K4Q` is recorded as 0.427.
`H13C`: “normalised enrichment score” 0.35.
For `K4N`, “normalised enrichment score” read 0.257.
Under “normalised enrichment score”, `T11L` is recorded as 0.457.
Under “normalised enrichment score”, `P2L` is recorded as 0.395.
Under “normalised enrichment score”, `R5A` is recorded as 0.356.
`L7C` — result for “normalised enrichment score”: 0.297.
For `E10I`, “normalised enrichment score” read 0.66.
Under “normalised enrichment score”, `H13I` is recorded as 0.597.
`D8T`: “normalised enrichment score” 0.786.
Under “normalised enrichment score”, `E10P` is recorded as 0.316.
`D8W`: “normalised enrichment score” 0.429.
`P1D`: “normalised enrichment score” 0.135.
For `V3M`, “normalised enrichment score” read 0.191.
`D8G` — result for “normalised enrichment score”: 0.54.

Block 5
Target: Histone acetyltransferase KAT6A, both winged helices, GST fusion (KAT6A, Homo sapiens, UniProt Q92794, residues 1-181)
Technique: protein binding microarray
Form: double-stranded DNA, one strand shown
Matrix: in vitro
Concentration: not given
Setting: 8-mer, flanks averaged, mean of 2 arrays, mostly near background
Baseline: not given
Reading: higher = stronger binding
Construct (chain): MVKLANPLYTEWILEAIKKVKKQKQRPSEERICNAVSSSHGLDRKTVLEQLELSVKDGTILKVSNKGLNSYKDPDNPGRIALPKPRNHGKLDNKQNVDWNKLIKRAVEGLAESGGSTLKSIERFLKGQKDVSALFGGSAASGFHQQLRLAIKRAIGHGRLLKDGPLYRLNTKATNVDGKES
`CCTACAGG` gave an E-score of -0.0675.
`GATCAGGC` has an E-score of -0.099.
For `TCACTTAA`, the E-score was -0.114.
`ACATGGAT` has an E-score of 0.00842.
For `GGCGCGAC`, the E-score was 0.188.
`CACGAGGC` gave an E-score of -0.191.
`CGCCTTAA` gave an E-score of 0.0367.
For `ATCAGCGC`, the E-score was 0.259.
With `GCTGTGTA` the E-score was 0.0761.
The E-score of `AATCGCAG` is reported as -0.107.
`CAAAGCGC` gave an E-score of 0.312.
`GATATGCA` has an E-score of -0.00143.
For `CGCCTAAG`, the E-score was 0.16.
`GACAAACC` gave an E-score of -0.117.
`GTGGGCTA` has an E-score of -0.233.
With `ACCTCACT` the E-score was -0.133.
`ACGATAGC` has an E-score of 0.0527.
The E-score of `CCCGTAAC` is reported as 0.185.
`ACTATACG` has an E-score of 0.128.
For `ATGTCGAG`, the E-score was -0.0303.
The E-score of `GTCGATCA` is reported as -0.137.
`AGTAGTTC` gave an E-score of 0.0195.
`CACGCGTA` gave an E-score of 0.257.
For `ATCCAACC`, the E-score was -0.113.
With `CACCCGGC` the E-score was 0.245.

Other studies, line by line
The fold induction of `PhoQ, residues 284 288 289 292 302 303 ASTSDA` is reported as 2.25 (PhoP, residues 12 14 15 18 19 SYFRT (Escherichia coli, UniProt P23836); Sort-seq, item: YFP reporter; E. coli; PhoQ-PhoP variant library, together with: 10 µM Mg2+; baseline: high Mg2+ state, higher = stronger signaling).

A few entries again (block 1):
For `Q41P`, the binding fitness was -1.54 natural log.
`L31R` has a binding fitness of -1.44 natural log.
`V35K` gave a binding fitness of -1.4 natural log.
`R30I` has a binding fitness of -1.39 natural log.
The binding fitness of `E32W` is reported as -1.52 natural log.
With `T37M` the binding fitness was -0.925 natural log.
`R53K` has a binding fitness of -1.5 natural log.
`A40C` gave a binding fitness of -1.17 natural log.
With `Q55I` the binding fitness was -1.32 natural log.
The binding fitness of `R53Q` is reported as -1.41 natural log.
`V35H` gave a binding fitness of -1.52 natural log.
`R53S` has a binding fitness of -1.44 natural log.
